# Assay results gathered from unrelated publications.
# Every numbered part comes from another study and shows a few of its results, in no order. Changes are numbered by the printed parent chain.

# Study 1 — technique: RNA Bind-n-Seq; molecule type: RNA; sample: in vitro; tested at: 20 nM; notes: 6-mer, flanks averaged, single round; added: 150 mM LiCl; reference: input library; reading: higher = stronger binding
# Target: TAR DNA-binding protein 43, full length, His tag (TARDBP, Homo sapiens, UniProt Q13148, residues 1-414)
Oligonucleotide,6-mer enrichment (R)
CCGGUC,0.884
CUCCAG,0.919
ACUGUU,0.992
AUUUAC,0.973
CGAAUC,0.811
CUUAGC,0.883
CGUAAG,0.864
AUGAGA,0.973

# Study 2 — technique: competition protein-binding microarray; molecule type: double-stranded DNA, one strand shown; sample: in vitro; tested at: 2 µM; added: Pho4 competitor, 0.05 µM; reading: higher = stronger binding; all sequences stand within: … GTCTTGATTCGCTTGACGCTGCTG
# Target: Centromere-binding protein 1, full length, His-tagged (CBF1, Saccharomyces cerevisiae, UniProt P17106, residues 1-351)
# Chain of UniProt P17106 (whole entry, looked up): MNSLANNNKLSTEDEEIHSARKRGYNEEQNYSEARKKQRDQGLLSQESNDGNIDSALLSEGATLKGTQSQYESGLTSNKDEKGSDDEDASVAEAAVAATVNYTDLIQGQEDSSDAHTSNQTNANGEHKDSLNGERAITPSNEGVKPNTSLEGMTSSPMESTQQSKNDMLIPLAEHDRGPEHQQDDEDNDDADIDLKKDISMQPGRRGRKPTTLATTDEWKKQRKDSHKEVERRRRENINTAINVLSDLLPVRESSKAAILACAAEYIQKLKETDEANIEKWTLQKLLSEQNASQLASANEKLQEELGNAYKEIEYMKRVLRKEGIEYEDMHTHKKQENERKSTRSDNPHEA
# Notes: whole 60-bp probe, lowest competitor level
Oligonucleotide,fluorescence intensity
TATTTTTTCACCATCAACGTGGTGATTCACTTATTC,117 a.u.
ACTTTGGAAACTGTTTCCGTGATGGTTTCAGTGCCA,71.5 a.u.
TACTCTGTAGTATTCCCCGTGAGGATCCACAGCACC,88.5 a.u.
CTTCTCTTTCCCTGGCACGTGCAATTTTACCTCTGA,3320 a.u.
CTTTCCCGATCTTGTAGAGTGGGTGTAGCACATTTG,67.6 a.u.
CTAACGAAGGTTTGACGTGTGGGTGACAAGCCAAGT,72.4 a.u.
CATACCCAACCTTGTAAAGTGGGTGAAGATATTTGT,84.2 a.u.
GCCTGTCCGTTGCTGCACATGCTTGCGTAGGGCCTT,87.7 a.u.

# Study 3 — effect on: binding; technique: phage display NGS; molecule type: peptide; tested at: concentration not given; reference: input library
# Target: UDP-N-acetylglucosamine--peptide N-acetylglucosaminyltransferase 110 kDa subunit (OGT, Homo sapiens, UniProt O15294)
# Chain of UniProt O15294 (whole entry, looked up): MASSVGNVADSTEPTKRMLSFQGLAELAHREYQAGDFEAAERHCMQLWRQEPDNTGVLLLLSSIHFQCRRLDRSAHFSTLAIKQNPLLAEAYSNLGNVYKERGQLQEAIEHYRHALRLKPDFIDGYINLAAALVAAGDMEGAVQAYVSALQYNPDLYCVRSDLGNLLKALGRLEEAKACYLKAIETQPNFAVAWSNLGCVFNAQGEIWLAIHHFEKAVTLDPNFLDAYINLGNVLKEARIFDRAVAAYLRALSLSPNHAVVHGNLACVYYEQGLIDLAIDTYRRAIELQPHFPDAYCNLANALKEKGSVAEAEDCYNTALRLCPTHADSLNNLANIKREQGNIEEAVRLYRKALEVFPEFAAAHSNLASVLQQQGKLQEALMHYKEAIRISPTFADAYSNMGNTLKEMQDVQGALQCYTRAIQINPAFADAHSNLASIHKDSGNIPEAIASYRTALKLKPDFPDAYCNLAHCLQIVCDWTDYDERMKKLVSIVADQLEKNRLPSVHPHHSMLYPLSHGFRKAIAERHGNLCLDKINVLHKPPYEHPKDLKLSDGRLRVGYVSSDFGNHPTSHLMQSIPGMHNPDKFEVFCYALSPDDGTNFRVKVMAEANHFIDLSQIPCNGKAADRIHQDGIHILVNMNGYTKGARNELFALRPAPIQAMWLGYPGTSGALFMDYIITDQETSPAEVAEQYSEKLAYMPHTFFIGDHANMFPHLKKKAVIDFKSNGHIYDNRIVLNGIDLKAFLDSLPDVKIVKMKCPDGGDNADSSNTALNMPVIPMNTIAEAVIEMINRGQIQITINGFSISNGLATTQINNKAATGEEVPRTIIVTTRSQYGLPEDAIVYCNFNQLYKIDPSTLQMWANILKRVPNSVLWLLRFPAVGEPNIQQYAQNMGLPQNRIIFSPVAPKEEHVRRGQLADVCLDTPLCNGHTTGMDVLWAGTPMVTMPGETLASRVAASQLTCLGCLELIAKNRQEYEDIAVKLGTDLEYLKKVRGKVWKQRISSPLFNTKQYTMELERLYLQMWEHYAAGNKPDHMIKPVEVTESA
Sequence,enrichment fold change
GRSDHTPHFEYRAHA,3.04
TPYPPYYPIVYMRT,4.44
HFNQHHHFFAVPPYD,6.43
HIHKRDTHWAWYTIG,3.23

# Study 4 — target: tungstate, free oxyanion; technique: microfluidic competitive inhibition; sample: in vitro, cell-free expressed; tested at: not given; reading: lower = stronger binding
# Notes: derived from inhibition constants, unchanged parent 2230 nM
# Starting sequence: PafA, mature enzyme, eGFP fusion (Elizabethkingia meningoseptica, UniProt Q9KJX5); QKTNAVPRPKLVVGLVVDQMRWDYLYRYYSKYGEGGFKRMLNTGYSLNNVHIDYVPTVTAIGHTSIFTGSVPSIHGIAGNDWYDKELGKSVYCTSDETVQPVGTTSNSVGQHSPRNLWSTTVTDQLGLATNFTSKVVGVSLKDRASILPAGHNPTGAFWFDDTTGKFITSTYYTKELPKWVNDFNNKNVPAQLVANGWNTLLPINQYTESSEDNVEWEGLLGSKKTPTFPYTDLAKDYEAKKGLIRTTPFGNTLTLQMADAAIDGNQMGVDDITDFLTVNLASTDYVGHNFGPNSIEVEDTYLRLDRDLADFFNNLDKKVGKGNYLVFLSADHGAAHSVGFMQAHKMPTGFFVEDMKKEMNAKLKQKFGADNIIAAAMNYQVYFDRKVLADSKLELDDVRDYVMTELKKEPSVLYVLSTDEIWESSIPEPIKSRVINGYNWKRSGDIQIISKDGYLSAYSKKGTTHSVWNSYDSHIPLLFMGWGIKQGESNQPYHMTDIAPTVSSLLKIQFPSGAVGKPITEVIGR
Change,oxyanion analog dissociation constant [nM]
I499G,1030
A344V,1870
F480V,1920
N205G,2210

# For quick reference, copied from above (study 1):
Oligonucleotide,6-mer enrichment (R)
ACUGUU,0.992
AUUUAC,0.973
CGAAUC,0.811
CUUAGC,0.883
